Experimental data of several laboratories.
Protocols differ between the studies behind these lines. Values joined by “and” are separate records of one study, mostly repeats; a detail may differ. ± gives the spread as reported.
CD38: ADP-ribosyl cyclase/cyclic ADP-ribose hydrolase 1 (CD38, Homo sapiens, UniProt P28907)
T1: RNA aptamer; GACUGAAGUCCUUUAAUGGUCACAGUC
T2: RNA aptamer GAA^A junction to UUC^G; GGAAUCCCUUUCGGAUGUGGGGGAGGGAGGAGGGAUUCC
T3: RNA aptamer A8G; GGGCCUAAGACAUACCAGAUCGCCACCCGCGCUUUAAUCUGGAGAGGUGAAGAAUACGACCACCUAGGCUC

`CN1C[C@H](c2cccc(C(F)(F)F)c2)[C@@H](C(=O)Nc2ccccc2F)C1=O`: “alpha factor of Ki” 9.5 ± 2.4 (PYRD (Oryza sativa, UniProt Q7XKC8); mixed-type inhibitor; added: decylubiquinone).
Under “melting temperature change”, `NC[C@@H]1O[C@H](O[C@H]2[C@@H](O)[C@H](O[C@@H]3[C@@H](O)[C@H](N)C[C@H](N)[C@H]3O[C@H]3O[C@H](CN)[C@@H](O)[C@H](O)[C@H]3N)O[C@@H]2CO)[C@H](N)[C@@H](O)[C@@H]1O` is recorded as 13.7 °C (T1, RNA aptamer; UV melting; 1 µM RNA, 10 µM molecule, pH 6.8, NaCl 100 mM).
`CN1CCN(CC(=O)N2N=C3/C(=C/c4ccccc4)CCCC3C2c2ccccc2)CC1` (mixture of isomers): “change in lag phase” 150 s (ALOX15 (Homo sapiens, UniProt P16050); enzyme activity, activator; concentration not given, 10 µM activator, added: 50 µM docosahexaenoic acid; relative to: without activator).
Under binding, `CN1C=C/C(=C/C=C/c2sc3ccccc3[n+]2CC(=O)NCCOCCOCCOCCNC(=O)CCCC[C@@H]2SC[C@@H]3NC(=O)N[C@@H]32)c2ccccc21` is recorded as “binds weakly” (T2, RNA aptamer GAA^A junction to UUC^G; fluorescence titration).
The inhibition of `Cc1cc(O)c2c(c1)C(=O)c1cc3oc(=O)cc(-c4ccccc4)c3c(O)c1C2=O` is reported as 13.2 ± 0.14% (mushroom tyrosinase; enzyme activity; 25 µg/mL, added: L-DOPA).
For `CCc1cc(C)nc2c(CC(=O)N(CC)CC)c(-c3ccc(OCC[18F])cc3)nn12`, “K1 influx rate constant” read 2.46 ± 0.55 mL/cm3/min (Tspo (Rattus norvegicus, UniProt P16257); two-tissue compartment model; rat C6 glioma model, tumor; 60 min dynamic PET).
The Dmax of `Cc1cc2nc(-c3ccc4c(c3)CN([C@H]3CCC(=O)NC3=O)C4=O)ccn2n1` is reported as 83% (Cereblon/Casein kinase I alpha (CSNK1A1/CRBN, Homo sapiens, UniProt P48729+Q96SW2); protein level, degrader, luciferase; MOLT-4).
`O=c1c(O)c(-c2ccc(O)cc2O)oc2cc(O)cc(O)c12` gave a remaining activity of 87.2 ± 3.4% (CD38; hydrolase activity, fluorometric; 50 µM, added: ε-NAD+ substrate; relative to: untreated).
`CCCCCCCCC(=O)Nc1ccc(OC)nc1C` gave a specific activity of 390 pmol/min/µg (CES1 (Homo sapiens, UniProt P23141); substrate; 50 µM, pH 8, 37 °C, enzyme purity 25%).
`CN(C)[C@@H]1C(=O)C(C(N)=O)=C(O)[C@@]2(O)C(=O)C3=C(O)c4c(O)cccc4[C@@](C)(O)[C@H]3C[C@@H]12` has a Kd of 0.00105 µM (T3, RNA aptamer A8G; fluorescence titration; pH 7.5, 25 °C, MgCl2 10 mM).
`O=C(O)[C@H]1O[C@@H](O[C@@H]2c3cc4ccc5cccc6c7ccccc7c(c3C=C[C@H]2O)c4c56)[C@H](O)[C@@H](O)[C@@H]1O` gave a kcat of 8.33e-05 ± 1.67e-05 s⁻¹ (UGT1A7 (Homo sapiens, UniProt Q9HAW7); glucuronidation, substrate; UGT-expressing HEK293 homogenate; normalized to UGT expression).
Under “heat capacity change ΔCp”, `CC(=O)NCCN(CC(=O)NCCN(CC(=O)NCCN(CC(=O)NCCC(N)=O)C(=O)C[C@@H](N)Cc1ccccc1)C(=O)C[C@@H](N)Cc1ccccc1)C(=O)C[C@@H](N)CCCNC(=N)N` is recorded as -1.6 ± 0.1 kJ/mol/K (HIV-1 TAR RNA; concentration not given).
`[3H]C([3H])([3H])c1cnccc1CN1C[C@@H](c2cc(F)c(F)c(F)c2)CC1=O`: “loss of specific binding” ~50.7% (SV2A (Homo sapiens, UniProt Q7L0J3); radioligand binding; human Alzheimer disease, temporal cortex P2 fraction; 5 nM; relative to: control brains).
For `CCCCCC[N+](CCCCCC)(CCCCCC)CCCCCC`, the remaining current was ~50% (Kcnk2 (Rattus norvegicus, UniProt Q920B6); ion current, blocker, inside-out patch clamp; Xenopus oocytes; 1 µM, pH 5.0, fully open channels, slow block; relative to: original current).
With `CC(=O)NCCN(CC(=O)NCCN(CC(=O)NCCN(CC(=O)NCCC(N)=O)C(=O)C[C@@H](N)Cc1ccccc1)C(=O)C[C@@H](N)CCCNC(=N)N)C(=O)C[C@@H](N)CCCNC(=N)N` the non-electrostatic TΔS° was -1.82 ± 0.55 kcal/mol (HIV-1 TAR RNA).
`Cc1cc(C)c2ccc(C3=C(O)c4ccccc4C3=O)nc2c1O` has a remaining activity of 35% (CD38; enzyme activity, inhibitor, fluorescence; 50 µM).
For `C=C1C(=O)O[C@@H]2[C@H]3C(CO)=CC(=O)C3=C(C)C[C@H](O)[C@@H]12`, “binding free energy” read -5.15 kcal/mol (MAL12 (Saccharomyces cerevisiae S288c, UniProt P53341); fluorescence quenching; 298 K).
Under binding change, `CC[C@H](C)[C@H](NC(=O)[C@H](CCC(=O)O)NC(=O)[C@H](CC(=O)O)NC(=O)c1ccc2c(c1)C(=O)OC21c2ccc(O)cc2Oc2cc(O)ccc21)C(=O)N[C@H](C(=O)N[C@@H](CC(N)=O)C(=O)N[C@@H](CCCCN)C(=O)N[C@H](C(=O)N[C@@H](CC(C)C)C(N)=O)C(C)C)C(C)C` is recorded as “no effect” (yeast Vps4p GP-linker mutant; fluorescence polarization; concentration not given; relative to: wild-type Vps4p).
`CNc1ccccc1C(=O)O[C@H]1C[C@H](n2cnc3c(N)ncnc32)O[C@@H]1COP(=O)(O)OP(=O)(O)O`: “dissociation rate constant” 3.84 ± 0.41 s⁻¹ (Unconventional myosin-Va (Gallus gallus, UniProt Q02440, D297C/G292C/I296C/S293C/V295G); stopped-flow FRET, linear fit intercept; 15 °C, added: MgCl2 10 mM).
With `O=P(O)(O)O[C@@H]1[C@@H](O)[C@H](O)[C@H](O)[C@H](O)[C@H]1OP(=O)(O)O` the Hill coefficient was 0.8 ± 0.1 (Inositol 1,4,5-trisphosphate-gated calcium channel ITPR1, N-terminal region (Itpr1, Rattus norvegicus, UniProt P29994, del318-332); [3H]IP3 competition binding; N-terminal fragment; cytosol-like medium).
With `N=C(N)NCCC[C@H](NC(=O)[C@H](Cc1ccccc1)NC(=O)[C@@H](N)CO)C(=O)N[C@@H](CC(N)=O)C(N)=O` the bias factor was 7.85 and ~8 (NPSR1 (Homo sapiens, UniProt Q6W5P4, N107I); agonist; CHO-Galpha16; relative to: calcium over cAMP).
`CC(=O)NCCN(CC(=O)NCCN(CC(=O)NCCN(CC(=O)NCCC(N)=O)C(=O)[C@@H](N)Cc1ccccc1)C(=O)[C@@H](N)CCCNC(=N)N)C(=O)[C@@H](N)CCCNC(=N)N` gave a non-electrostatic ΔG° of -6.573 ± 0.0478 kcal/mol (HIV-1 TAR RNA; extrapolated to 1 M KCl).
For `CC(C)C[C@H](NC(=O)[C@H](CO)NC(=O)[C@H](CO)NC(=O)[C@H](CC(C)C)NC(=O)[C@@H](NC(=O)[C@@H]1CCCN1C(=O)[C@H](Cc1c[nH]c2ccccc12)NC(=O)[C@H](Cc1ccc(O)cc1)NC(=O)[C@@H]1CCCN1C(=O)[C@H](CC(C)C)NC(=O)[C@H](Cc1ccc(O)cc1)NC(=O)[C@@H](N)CCCCN)C(C)C)C(=O)O`, the ligand efficiency was 0.086 (EPHA4 (Homo sapiens, UniProt P54764); isothermal titration calorimetry).
The inhibition of `Cc1cc(O)c2c(c1)C(=O)c1cc3oc(=O)cc(-c4ccc(O)cc4)c3c(O)c1C2=O` is reported as 31.33 ± 0.17% (mushroom tyrosinase; enzyme activity; 100 µg/mL, added: L-DOPA).
For `CC[C@H](C)[C@H](NC(=O)[C@H](CCC(=O)O)NC(=O)[C@H](CO)NC(=O)[C@@H](N)C(C)C)C(=O)N[C@@H](CCC(N)=O)C(=O)N[C@@H](CC(C)C)C(=O)N[C@@H](CCSC)C(=O)N[C@@H](Cc1c[nH]cn1)C(=O)N[C@@H](CC(N)=O)C(=O)N[C@@H](CC(C)C)C(=O)NCC(=O)N[C@@H](CCCCN)C(=O)N[C@@H](Cc1c[nH]cn1)C(=O)N[C@@H](CC(C)C)C(=O)N[C@@H](CC(N)=O)C(=O)N[C@@H](CO)C(=O)N[C@@H](CCSC)C(=O)N[C@@H](CCC(=O)O)C(=O)N[C@@H](CCCNC(=N)N)C(=O)N[C@H](C(=O)N[C@@H](CCC(=O)O)C(=O)N[C@@H](Cc1c[nH]c2ccccc12)C(=O)N[C@@H](CC(C)C)C(=O)N[C@@H](CCCNC(=N)N)C(=O)N[C@@H](CCCCN)C(=O)N[C@@H](CCCCN)C(=O)N[C@@H](CC(C)C)C(=O)N[C@@H](CCC(N)=O)C(=O)N[C@@H](CC(=O)O)C(=O)N[C@H](C(=O)N[C@@H](Cc1c[nH]cn1)C(=O)N[C@@H](CC(N)=O)C(=O)N[C@@H](Cc1ccccc1)C(=O)N[C@@H](CCCCNC(=O)c1ccc2c(c1)C1(OC2=O)c2ccc(N(C)C)cc2Oc2cc(N(C)C)ccc21)C(N)=O)C(C)C)C(C)C`, the koff was 0.0053 ± 0.004 s⁻¹ (PTH1R (Homo sapiens, UniProt Q03431); binding, NanoBRET; HEK293).
`COc1ccc(CNC(=O)c2sc3nc(C)cc(C)c3c2N)cc1`: “efficacy cooperativity β” 4.63 (Muscarinic acetylcholine receptor M4 (Rattus norvegicus, UniProt P08485); calcium mobilization, positive allosteric modulator; added: acetylcholine).
`CC(C)(O)Cn1nc(-c2ccccc2)c2c(Cl)c(-c3ccccc3)nnc21` gave an EC90 of 15 µM (Clarin-1 (CLRN1, Homo sapiens, UniProt P58418, N48K); CLRN1 N48K expression; D6; 0.5 h exposure then 24 h in compound-free medium).
`O=C(Nc1ccc(C(=O)Nc2ccc(C(=O)Nc3ccc(S(=O)(=O)O)c4cc(S(=O)(=O)O)cc(S(=O)(=O)O)c34)cc2)cc1)Nc1ccc(C(=O)Nc2ccc(C(=O)Nc3ccc(S(=O)(=O)O)c4cc(S(=O)(=O)O)cc(S(=O)(=O)O)c34)cc2)cc1` gave a Vmax of 30.6 ± 1.56 mAU/min (Neutrophil elastase (ELANE, Homo sapiens, UniProt P08246); substrate S-1384 hydrolysis; pH 7.4, 37 °C, enzyme 100 nM).
`CC(=O)NCCN(CC(=O)NCCN(CC(=O)NCCN(CC(=O)NCCC(N)=O)C(=O)[C@@H](N)CCCNC(=N)N)C(=O)[C@@H](N)CCCNC(=N)N)C(=O)[C@@H](N)Cc1ccccc1` gave a non-electrostatic ΔG° of -7.43 ± 0.0956 kcal/mol (HIV-1 TAR RNA; extrapolated to 1 M KCl).
The Emax of `CCOc1ccccc1-c1nnc2n1N=C(c1ccc(O)cc1)CS2` is reported as 96% (CXCR4 (Homo sapiens, UniProt P61073); β-arrestin recruitment, agonist; U2OS).
With `CC(=O)NCCN(CCC(=O)NCCN(CCC(=O)NCCN(CCC(=O)NCCC(N)=O)C(=O)[C@@H](N)CCCNC(=N)N)C(=O)[C@@H](N)CCCCN)C(=O)[C@@H](N)Cc1ccccc1` the non-electrostatic TΔS° was -9.13 ± 0.287 kcal/mol (HIV-1 TAR RNA).
`N[C@@H](Cc1ccc(O)c(O)c1)C(=O)O` has a Km of 4.87 mM (polyphenol oxidase Crocus sativus; substrate; dormant corm enzyme; pH 6.8).
`O=C(NC[C@@H](Cc1ccc(F)cc1)N1CCC(O)(C(F)(F)F)CC1)C1(c2ccc(Cl)cc2)CCCC1` — result for activation: “inhibited” (TRPA1 (Homo sapiens, UniProt O75762, V875G); calcium influx, agonist; concentration not given, V875G mutant).
`Cc1sc2nc[nH]c(=O)c2c1C`: “adjusted retention time” 47 min (GAK (Homo sapiens, UniProt O14976); binding, weak affinity chromatography-MS; flow 20 µL/min; higher = stronger binding).
The PKA activation of `C=C[C@]12CCC(=O)C=C1CC[C@H]1[C@@H]3CC[C@H](C(C)=O)[C@@]3(C)CC[C@@H]12` is reported as 57.9 % increase (Membrane progesterone receptor epsilon (Paqr9, Mus musculus, UniProt Q6TCG2); MDA-MB-231, GFP-tagged; 10 nM, 20 min; relative to: control).
With `NC(=O)C1CCNC(=O)C(CCCNC(=O)c2cnccn2)NC(=O)C(CC2CCCCC2)NC(=O)C(CC2CC2)NC(=O)C=CC(=O)N1` (stereo not drawn) the enrichment factor was 1.6 (MAPK14 (Homo sapiens, UniProt Q16539); DNA-templated library selection; one selection round).

Repeated from above:
`CC(=O)NCCN(CC(=O)NCCN(CC(=O)NCCN(CC(=O)NCCC(N)=O)C(=O)[C@@H](N)CCCNC(=N)N)C(=O)[C@@H](N)CCCNC(=N)N)C(=O)[C@@H](N)Cc1ccccc1` gave a non-electrostatic ΔG° of -7.43 ± 0.0956 kcal/mol (HIV-1 TAR RNA; extrapolated to 1 M KCl).
The Emax of `CCOc1ccccc1-c1nnc2n1N=C(c1ccc(O)cc1)CS2` is reported as 96% (CXCR4 (Homo sapiens, UniProt P61073); β-arrestin recruitment, agonist; U2OS).
With `CC(=O)NCCN(CCC(=O)NCCN(CCC(=O)NCCN(CCC(=O)NCCC(N)=O)C(=O)[C@@H](N)CCCNC(=N)N)C(=O)[C@@H](N)CCCCN)C(=O)[C@@H](N)Cc1ccccc1` the non-electrostatic TΔS° was -9.13 ± 0.287 kcal/mol (HIV-1 TAR RNA).
`N[C@@H](Cc1ccc(O)c(O)c1)C(=O)O` has a Km of 4.87 mM (polyphenol oxidase Crocus sativus; substrate; dormant corm enzyme; pH 6.8).
